Results from different studies.
Every numbered part comes from another study and shows a few of its results, in no order.

Sample 1
Target: RING finger protein unkempt homolog, zinc fingers 1-6, SBP tag (UNK, Homo sapiens, UniProt Q9C0B0, residues 30-357)
Chain of UniProt Q9C0B0 (30-357, looked up): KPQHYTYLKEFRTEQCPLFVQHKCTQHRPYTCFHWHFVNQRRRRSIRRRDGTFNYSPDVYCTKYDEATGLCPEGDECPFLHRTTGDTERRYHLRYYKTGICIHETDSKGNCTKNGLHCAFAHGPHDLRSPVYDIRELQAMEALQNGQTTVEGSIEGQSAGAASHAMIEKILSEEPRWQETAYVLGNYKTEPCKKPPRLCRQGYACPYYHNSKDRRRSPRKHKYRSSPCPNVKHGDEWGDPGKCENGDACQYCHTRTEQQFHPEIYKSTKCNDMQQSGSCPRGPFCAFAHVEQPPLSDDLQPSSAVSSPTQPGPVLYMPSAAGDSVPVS
Method: RNA Bind-n-Seq
Molecule type: RNA
Medium: in vitro
Concentration: 100 nM
Setting: RNA with constant flanks, vertebrate orthologous sites, ends assumed
Baseline: input RNA pool
Reading: higher = stronger binding
Quantity: bound/input enrichment
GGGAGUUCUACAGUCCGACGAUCCUAGCCGCCUGGGAGAAAUGGAUGCUGGCCGGGAACAAACAGCGAAUCUCGGGUACGCUGCUACCCUCUGCACUACGGGGAAGUGGCUGUCCCUUCCCUGCUGGAGCCAGCUCUGUUUGGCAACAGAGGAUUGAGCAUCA: 0.334 ratio
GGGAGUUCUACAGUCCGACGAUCCGUGCUUAUGCUCUUCUAUGAGAGAGAUGAAUUGGGGAGAAUUGUCUCCAUUUUAUAGAUUAGUUUCUUUCUAAAUUAUGACCAAAAAUAUUUUGCUAUUUCUUUCUUUGUAUAUGGACACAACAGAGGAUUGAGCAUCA: 0.733 ratio
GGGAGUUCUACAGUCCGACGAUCUUUUAUUGAUCAGGUCUGUAAAUGUGUACUAAAAAAAUCAGAGUUUAUUUAUAAACAGAAUAGUUUAUUUAAAGAGAAGGUCUUUUCCUUAUUGAUAUCAUGGUAUGCAUUAAUUCCAUUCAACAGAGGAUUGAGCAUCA: 0.147 ratio
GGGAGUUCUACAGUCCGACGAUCAUAUUGUAUGUAGAGAAAAAUUUUCAUUGACCCCAUUGUGAAAUUCCCUAGCAAUUUAUUUAGAAUCUUAAUUUUUCUAAUUGAAGCUCACUGUAUUAGUCAUUUUUAGCAUAAUUAAAACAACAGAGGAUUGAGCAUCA: 2.45 ratio
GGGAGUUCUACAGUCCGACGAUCCUACUCUAAACAACUCAGGGCAGUACUCUCGAUAUCCUUACAGUAACCUAAAUCAGGGAUUAGUUAACAAUACAGGGAUGAAUCAAAAUUUAGGCCUUACAAACAAUACUCCAAUGAACCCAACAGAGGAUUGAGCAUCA: 1.75 ratio
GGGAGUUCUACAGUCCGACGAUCAGUCUCUUCUCCCCUGACCUGAUUUUAAAAGGCCCCUUUUUUUCUUUUCUUUUUUUAGACAUAUGUAGUAAUAGAAAGAUUUAAUUUGGGCAACUUUGAUUCUUAAAAGAGAAAGCAAAGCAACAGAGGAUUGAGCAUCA: 0.634 ratio
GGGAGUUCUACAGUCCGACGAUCGCCCAGCACUUUGGUAAAAAGUGUGGACUGGCUGCUUGUAUUUUCCUUAUUCUUUCUGAUUAGUUUCAUUAUGUACGCCACCAUUCGAACUGAGAAUAUUAGGUGGCUAAUUCCGGGACACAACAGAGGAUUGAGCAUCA: 1.4 ratio
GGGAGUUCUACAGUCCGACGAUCCCCUCUGAACCCCAUAUCUUCUGUCUCAUAGUGUAGAAGUAGUCUUUUCAAUUAUAUUAUUAGUGGACUUGUUUUAAUUUUAGGGAAACUUUCAGUACAGAUACUGUGAGCUUACAUGGACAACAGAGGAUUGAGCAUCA: 4.1 ratio
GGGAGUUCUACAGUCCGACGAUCAAAUUUAUUUCAUGCCCUGGACUCCCUAUCGUACUGAUACUUUAAUAGAAUAUGCUUCGUUAGAAGAUUUCCAAAACAGUCGCCAAACAACGACAUAUAAACUUCCAAAUCGAGUAGAUGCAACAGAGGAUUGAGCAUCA: 0.797 ratio
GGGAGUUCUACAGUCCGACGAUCCAGCAAACUCCCUCAUUGGCCGCGCAGCGCACAUCGCCGUCCUGGAUUCUGAGAUCUUUCUGGAGAAGUUCUUCCUCGUUGCUGGCCUCAAAUACUUUCAGUAGAACAGAAUCGGAAUCACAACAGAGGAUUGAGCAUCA: 0.285 ratio
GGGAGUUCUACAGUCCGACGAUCUCUUCCUUCCUUUUUUUCUUUUGUUCUUUUUUUUUCUUUUUCUUUUUCUUUUUUUUUGGUAGUUUGUUGUUACCCACGCCAUUUUACGUCUCCUUCACUGAAGGGCUAGAGUUUUAACUUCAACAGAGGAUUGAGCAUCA: 3.09 ratio

Sample 2
Target: RNA binding protein fox-1 homolog 2, RRM domain, GST-SBP tag (RBFOX2, Homo sapiens, UniProt O43251-10, residues 100-194)
Method: RNA Bind-n-Seq
Molecule type: RNA
Medium: in vitro
Concentration: 365 nM
Setting: natural RNA segment, single round, ends assumed
Baseline: no-protein control
Reading: higher = stronger binding
Quantity: RBNS enrichment (R)
Construct (chain): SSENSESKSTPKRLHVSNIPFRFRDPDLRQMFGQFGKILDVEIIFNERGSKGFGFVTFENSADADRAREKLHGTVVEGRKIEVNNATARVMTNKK
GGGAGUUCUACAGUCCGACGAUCACUGACAGGUACCUUAGUUCUGUGUUCAUGUGGCCCUGACCCUUCCUUCAACCACACCUGGUCUCUUAGAACAUUGUGAACCUAACCUGCACUUGUGUCUCUCAUUUCCUUGGAAUUCUCGGGUGCCAA: 0.439
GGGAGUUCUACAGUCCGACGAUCAGCUACUGAUUUGAAUUUGUUUUUAUCUUGUCCUAAAGUCUUUGUUCUUGAAAUGCAAGGUAUUUGGGGGUUAUUUAUUAUGAAAGCAACAUACUCUUAAUGUUGAUUUUUGGAAUUCUCGGGUGCCAA: 0.448
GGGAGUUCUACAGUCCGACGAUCUUAAAUAAUUUAAUUGCAUUAUAGCAUAUAAACUAUAAAUGAAAAUGAUCUUUGUCUUUCCUUUAUCUUGCUUUAUCCUCUUAUCCAAUUCUAGACUCUUAAAUAAUCACUGGAAUUCUCGGGUGCCAA: 0.693
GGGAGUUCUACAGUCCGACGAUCGAGGUGACCACCGGGACCCAAGGUGGGGGGCCCAUAACUGUUUGUCUGCUCAGCCUUGCUGGAGAUUCUGGGUGGCAGGGAUGUCCUGAUGGGACCCUCUGGAGUCCAGCUGGAAUUCUCGGGUGCCAA: 0.747
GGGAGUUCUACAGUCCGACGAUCACUGGCCAUCAGAGAAAUGCAAAUCAAAACCACUAUGAGAUAUCAUCUCACACCAGUUAGAAUGGCAAUCAUUAAAAAGUCAGGAAACAACAGGUGCUGGAGAGGAUGUGUGGAAUUCUCGGGUGCCAA: 0.333
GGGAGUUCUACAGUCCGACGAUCAGGUCAUCAAAAUAAUUUUUGUGUAUAAGGGAAUUUACCUUGCUUACCUUACUAGUAUGACUAUUAUCUUGACUUCUGGUAAUUUAUGUUCACUAUUCCAUUUGUGAAGUUGGAAUUCUCGGGUGCCAA: 0.56
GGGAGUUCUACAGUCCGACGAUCUUAAUCAGGCUGUCUUGGAAGGGUAUUGUAUUGGGAGACAAGGGGCGGUGGUGGACCUCACCUUCAAUCCAAGUUUUCAAAGAUAUUUUCUCAAUAACUCUAAAAGGGAGUGGAAUUCUCGGGUGCCAA: 0.323
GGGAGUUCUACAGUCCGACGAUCGCCCUUGGCGGGAGCUUUGUGGGGGCGAGCCUGAAGAGGAAGGAACAGUGCUACUUCUAAGUGAUGUUUAUUUUCUGUACCUGAAAUGGUUGCAAUUUAGAGAUGUUCCAUGGAAUUCUCGGGUGCCAA: 0.513
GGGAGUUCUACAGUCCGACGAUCGACCUCAGACACUCUCUGGCUAAUAUUUUAAUAAGCUCACAGCAGAUAAUUCUGAGAUCAUGGGUGAGGGGUGGUGCAUGUUGAGAUUUAAAUUGGCAUAAAGCUGCAUAUGGAAUUCUCGGGUGCCAA: 3.07
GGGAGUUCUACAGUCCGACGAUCGGGCUCUCUGCUGUACAUAUUUGAGACUAGUUUUUAUUCCUUGUGAAGAUGAUAUACUAUUUUUGUUAAGCGUGUCUGUAUUUAUGUGUGAGGAGCUGCUGGCUUGCAGUUGGAAUUCUCGGGUGCCAA: 0.407
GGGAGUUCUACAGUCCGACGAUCCCUGGAACUUGGAAGAGCAGCAGAUGAAGUUGGAAAGAAAAUUCUGCUCUUAUCACCUAAACAGGACAGGAGAGCAGAUGCCCCAGCGCCUCUAGUAGAUGGUAGUGGUGUGGAAUUCUCGGGUGCCAA: 0.325
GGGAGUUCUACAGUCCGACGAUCCCUUUGCCAGGUGCUUAUUUAAGUACAAAUCCUUUUCAAAGGACUCUAGUGUUCAGUUGUUGAUGUGCCCCUGCCCACUGCCUGCUCGAGGAAUACCUCUGUUCUACCCAUGGAAUUCUCGGGUGCCAA: 0.493

Sample 3
Target: Phosphate system positive regulatory protein PHO4, full length, GST-tagged (PHO4, Saccharomyces cerevisiae, UniProt P07270, residues 1-312)
Method: competition protein-binding microarray
Molecule type: double-stranded DNA, one strand shown
Medium: in vitro
Concentration: 2 µM
Setting: whole 60-bp probe, lowest competitor level
Added: Cbf1 competitor, 0.05 µM
Reading: higher = stronger binding
Quantity: fluorescence intensity
Residues (chain): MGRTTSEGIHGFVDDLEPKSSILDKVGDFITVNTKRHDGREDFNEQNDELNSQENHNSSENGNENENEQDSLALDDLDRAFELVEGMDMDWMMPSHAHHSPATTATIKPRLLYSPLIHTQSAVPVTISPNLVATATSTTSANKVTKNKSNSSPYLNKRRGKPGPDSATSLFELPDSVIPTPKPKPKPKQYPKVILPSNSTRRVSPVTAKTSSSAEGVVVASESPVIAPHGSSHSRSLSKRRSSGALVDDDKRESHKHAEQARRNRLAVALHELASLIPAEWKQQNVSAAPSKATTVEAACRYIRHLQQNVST
ATTCATGTTTGGCTACTCGTGCTTTCTTCGAAGAATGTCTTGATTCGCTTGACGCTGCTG: 11800 a.u.
ACTTTATACCACCACCACATGCCATACTCACCCTCAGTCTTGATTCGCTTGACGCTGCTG: 10900 a.u.
AAACCACCCTCTTTTCACGTTTCTTCAAGGCCAGTGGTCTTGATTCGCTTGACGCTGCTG: 8560 a.u.
ACCATTGTAGTTATCAACGTGAGCCATAATAGGTTCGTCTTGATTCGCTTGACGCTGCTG: 9820 a.u.
GTCTTGTCTCATTGTGGGGTGGGTGTCCCCACTTCAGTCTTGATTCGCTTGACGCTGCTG: 5750 a.u.
CTAAATCTGCGTTAGCTCGTGGTGAGTATTTGCGCGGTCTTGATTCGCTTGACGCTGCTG: 10700 a.u.
CATACCCAACCTTGTCTAGTGGGTGAAGATATTTGTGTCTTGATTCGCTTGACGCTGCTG: 4020 a.u.
AAATTACTAAGTTGCAAAGTGGGTGACGCCGTATGAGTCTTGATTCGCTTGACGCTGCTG: 4120 a.u.
CGTCCTAGCGATTGATTCGTGGGTGCCATGAGGAAGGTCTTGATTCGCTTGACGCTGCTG: 6820 a.u.
GGGATAGCACTCTGAAACGTGTTGAAGTCTCCTTCCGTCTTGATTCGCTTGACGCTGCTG: 11500 a.u.
GTTTCTGATGACCATCACGTGAAGAATTTGATGTCCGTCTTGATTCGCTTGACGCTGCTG: 14400 a.u.
TGACCATTGACTTTGAACGTGGTCGTCCAGTAAAGTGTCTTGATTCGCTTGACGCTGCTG: 10500 a.u.
GCCTCCGGTCCAGGCACCGTGGCCGCAGGTTTGATTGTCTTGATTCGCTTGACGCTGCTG: 5970 a.u.
GTCTTGTCTCATTGACCTGTGGGTGTCCCCACTTCAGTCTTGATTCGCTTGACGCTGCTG: 5250 a.u.
AAGGTTTCGCCGTAGAACGTGCTTTCCAGTTCATGGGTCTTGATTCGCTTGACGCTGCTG: 14600 a.u.
CTTCTGTAAATTTGAGGTGTGGGTGGACGCGCCCCGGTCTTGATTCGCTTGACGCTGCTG: 6070 a.u.
CATCTAACTTTTTTGCACGTGAATTGGATCTTGAGTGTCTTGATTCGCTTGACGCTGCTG: 14500 a.u.
ATTGAGAATAGTCATCAGGTGTAATGGAAGCTAATTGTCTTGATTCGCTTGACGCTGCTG: 4130 a.u.
CATACCCAACCTTCTCACGTGTTTTAAGATATTTGTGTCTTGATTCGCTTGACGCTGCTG: 16700 a.u.
CGGGGTTAAGTTTAGCACGTGTTTTGCTTGCAGCAGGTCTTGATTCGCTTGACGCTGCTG: 18300 a.u.
CTTCTGTAAATTTGGAACGTGGGTGGACGCGCCCCGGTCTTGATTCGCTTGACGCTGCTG: 14400 a.u.
CTTTCCCGATCTTGTCACACCACTTTAGCACATTTGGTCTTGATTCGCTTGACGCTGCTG: 5670 a.u.

Sample 4
Target: Histone acetyltransferase KAT6A, winged helix 1, GST fusion (KAT6A, Homo sapiens, UniProt Q92794, residues 1-85)
Method: protein binding microarray
Molecule type: double-stranded DNA, one strand shown
Medium: in vitro
Concentration: not given
Setting: 8-mer, flanks averaged, mean of 2 arrays, mostly near background
Baseline: not given
Reading: higher = stronger binding
Quantity: E-score
Residues (chain): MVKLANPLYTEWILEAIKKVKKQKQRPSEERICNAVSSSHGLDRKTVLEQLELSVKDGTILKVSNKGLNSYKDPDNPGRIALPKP
AGTCAAAT: -0.291
GCGAGACA: 0.1
ACGTTTGA: -0.0411
CGCTGCGC: 0.387
GAATTTCA: -0.138
GCAGTATA: -0.0596
AGTGCACC: 0.0259
GGGTAAGA: -0.145
TGACGTAA: -0.0597
GGGTAGAC: 0.167
AAGGACCC: -0.0155
ATAGAGGC: -0.0906
TGAGGGCA: -0.144
AAGATGAC: -0.184
ATAGCACA: -0.114
CGAAAAGC: 0.0409
AGTATTTG: -0.229
AAAAGGGT: -0.112
AACTAGTA: -0.11
